Measured values of several laboratories.
A part holds a random share of what one study measured.
Sequence of UniProt P35368 (whole entry, looked up): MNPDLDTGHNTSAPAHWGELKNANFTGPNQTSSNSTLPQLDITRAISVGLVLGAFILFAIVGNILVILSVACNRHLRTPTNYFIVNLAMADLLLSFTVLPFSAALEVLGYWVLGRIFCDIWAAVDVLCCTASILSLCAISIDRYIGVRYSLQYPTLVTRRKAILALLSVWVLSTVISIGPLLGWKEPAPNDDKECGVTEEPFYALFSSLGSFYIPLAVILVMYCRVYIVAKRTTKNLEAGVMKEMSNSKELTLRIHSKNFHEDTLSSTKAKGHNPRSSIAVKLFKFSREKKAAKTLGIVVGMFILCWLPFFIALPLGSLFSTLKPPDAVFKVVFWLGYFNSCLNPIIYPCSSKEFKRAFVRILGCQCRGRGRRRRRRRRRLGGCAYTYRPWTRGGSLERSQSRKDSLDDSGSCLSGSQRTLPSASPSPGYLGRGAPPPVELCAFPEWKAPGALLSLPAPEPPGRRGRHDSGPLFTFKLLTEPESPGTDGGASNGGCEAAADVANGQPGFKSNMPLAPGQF

Study 1
Target: Centromere-binding protein 1, full length, N-terminal tag (CBF1, Saccharomyces cerevisiae, UniProt P17106, residues 1-351)
Sequence of UniProt P17106 (whole entry, looked up): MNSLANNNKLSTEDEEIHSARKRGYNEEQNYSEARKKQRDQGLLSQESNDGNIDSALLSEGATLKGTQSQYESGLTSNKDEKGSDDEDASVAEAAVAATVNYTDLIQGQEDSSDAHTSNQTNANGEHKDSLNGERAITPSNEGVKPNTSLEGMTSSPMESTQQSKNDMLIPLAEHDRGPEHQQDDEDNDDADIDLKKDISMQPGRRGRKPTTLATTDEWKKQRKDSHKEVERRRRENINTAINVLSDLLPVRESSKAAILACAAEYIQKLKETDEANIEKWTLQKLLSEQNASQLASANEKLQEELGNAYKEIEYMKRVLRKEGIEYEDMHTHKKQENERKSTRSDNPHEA
Technique: protein-binding microarray
Form: double-stranded DNA, one strand shown
Medium: in vitro
Concentration: 0.8 µM
Notes: whole 60-bp probe, no competitor
Direction: higher = stronger binding
For `CTAAAACTTTGAGCTCTGATGACTTTGCAATGATTCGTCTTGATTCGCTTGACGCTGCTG`, the fluorescence intensity was 498 a.u.
For `CTATAAGGTAAGTTCGAGGTGACATATTTCACATTCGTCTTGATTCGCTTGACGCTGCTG`, the fluorescence intensity was 525 a.u.
With `GAATCTAAAGTATGCTTCGTGCGTTTTAGGATATAGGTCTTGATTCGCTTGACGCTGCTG` the fluorescence intensity was 521 a.u.
For `TGTACGAAGCTATGTGTCACCATTATAGTAGTTAGGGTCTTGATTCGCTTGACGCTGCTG`, the fluorescence intensity was 516 a.u.
For `CTAAAAGATAAACACCACGACGTATGCACGGATTTCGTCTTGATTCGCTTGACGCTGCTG`, the fluorescence intensity was 512 a.u.
With `CTAGTCAGGTTTCACGTGGCAACTACAAGAAAATTCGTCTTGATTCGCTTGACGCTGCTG` the fluorescence intensity was 3080 a.u.
`GAAGTACTAGATAGTCACGTGAATGTATACACGTAGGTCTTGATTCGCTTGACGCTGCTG` has a fluorescence intensity of 17300 a.u.
The fluorescence intensity of `GAAGGCGGGGCAAACGTGATGGCGCTTGCTATTTAGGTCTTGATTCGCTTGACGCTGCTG` is reported as 611 a.u.

Study 2
Target: Max dimerization protein 1, bHLH-zipper, MAX partner unstated (MXD1, Homo sapiens, UniProt Q05195, residues 56-136)
Technique: protein-binding microarray
Form: double-stranded DNA, one strand shown
Medium: in vitro
Concentration: not given
Notes: k-mer, scored over probes, only values ≥0.25
Direction: higher = stronger binding
Target sequence (chain): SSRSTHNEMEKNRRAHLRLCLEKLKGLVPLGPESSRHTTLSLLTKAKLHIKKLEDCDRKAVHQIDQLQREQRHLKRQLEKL
`CACACGCG` gave an E-score of 0.442.
For `CGTGTGTC`, the E-score was 0.33.
`CGTGCGTC` gave an E-score of 0.394.
`CCACGAGC` has an E-score of 0.301.
With `CACGCACG` the E-score was 0.326.
The E-score of `ACGTTGAT` is reported as 0.28.
`ATGCGGAC` gave an E-score of 0.287.
`ACACGAGT` gave an E-score of 0.424.

Study 3
Target: TAR DNA-binding protein 43, full length, His tag (TARDBP, Homo sapiens, UniProt Q13148, residues 1-414)
Technique: RNA Bind-n-Seq
Form: RNA
Medium: in vitro
Concentration: 20 nM
Notes: 6-mer, flanks averaged, single round
With: 150 mM LiCl
Baseline: input library
Direction: higher = stronger binding
`UUACCG`: “6-mer enrichment (R)” 0.893.
Under “6-mer enrichment (R)”, `CACGGC` is recorded as 0.876.
For `CAUCGA`, “6-mer enrichment (R)” read 0.786.
Under “6-mer enrichment (R)”, `CGUGAG` is recorded as 1.04.
Under “6-mer enrichment (R)”, `UCGGGC` is recorded as 1.
Under “6-mer enrichment (R)”, `CUCCGA` is recorded as 0.852.
For `CUGAGU`, “6-mer enrichment (R)” read 0.963.
`GCAGGU` — result for “6-mer enrichment (R)”: 1.04.

Other studies, line by line
`CC(=O)Nc1ncc(CN2CCC[C@H](Cc3cc(C)nc(C)c3)C2)s1` has an inhibition of -5.2% (Alpha-1B adrenergic receptor (ADRA1B, Homo sapiens, UniProt P35368); ligand displacement; 10 µM).
